Assay results collected from several papers.
Protocols differ between the studies behind these lines. Several values in a cell are separate wells, animals, samples, runs or records.
CDK9: Cyclin-dependent kinase 9 (CDK9, Homo sapiens, UniProt P50750)
CDK9 with cyclin T1: Cyclin-dependent kinase 9, with cyclin T1 (CDK9, Homo sapiens, UniProt P50750)
CDK9 with cyclin K: Cyclin-dependent kinase 9, with cyclin K (CDK9, Homo sapiens, UniProt P50750)

Structure (SMILES)	target	test	test system	conditions	how to read	endpoint	value
COc1ccc(NC(=O)Nc2ccc3c(c2)C(=O)N(C(C)CO)CC(C)C(CN(C)Cc2ccc4c(c2)OCO4)O3)cc1 (centres unmarked)	CDK9	binding, competition with immobilised ligand		10 µM		remaining binding	90%
Cc1cc(C)nc(Nc2ccc([C@@H]3CCCN(C(=O)/C=C/c4csc(C)n4)C3)nc2)n1	CDK9	enzyme activity, inhibitor, ADP detection		1 µM		activity vs control	117%
COc1c(OCCCN2CCOCC2)ccc2c1N=C(NC(=O)c1cnc(N)nc1)N1CCN=C21	CDK9 with cyclin T1	kinase activity, inhibitor		1 µM	reference: untreated control	remaining activity	108%
Cc1[nH]nc2c1N=C(c1ccccc1Cl)c1cnc(N3CCOCC3)cc1N2	CDK9	enzyme activity, inhibitor		0.5 µM		inhibition	43.6%
C=C1CCCCCCCCCC(CO)C1=O (centres unmarked)	CDK9	cell-free assay, competition with immobilised ligand		10 µM		remaining binding	90%
O=C(O)CCC(=O)c1cccc(NS(=O)(=O)c2c[nH]c3ncccc23)c1	CDK9 with cyclin T1	kinase activity, radiometric		10 µM		remaining activity	100%
CNC1C[S+]2CC[S+]3CC[S+](C1)[Ru-4]321([N]=C=S)[n]2c3ccc(OC)cc3c3c4c(c5cc(F)c[n+]1c5c32)C(=O)NC4=O (centres unmarked)	CDK9	KinomeScan		0.1 µM	reference: untreated	remaining binding	90%
CN1CC[C@@H](COc2cnc(C#N)cc2-c2ccn3nc(NC(=O)C4CC4)cc3c2)C1	CDK9 with cyclin T1	enzyme activity, inhibitor		1 µM		inhibition	20%
CNC(=O)C1CCN(c2cc(C)c(F)cc2NC(=O)c2ccc(-c3cc(O)ccc3C)c(C)c2)CC1	CDK9	binding, competition with immobilised ligand		1 µM		remaining binding	95%
Cc1cccc(O[C@H]2CCC[C@@H](C(C)CNCc3ccncc3)C2)c1 (relative stereo)	CDK9 with cyclin T1	enzyme activity, inhibitor		1 µM		inhibition	7%
C=CC(=O)Nc1cccc(-c2cnc3[nH]cc(C(=O)NC(C)(C)C)c3n2)c1	CDK9 with cyclin T1	kinase activity		0.1 µM		inhibition	2% and 1%
C=CC(=O)N1Cc2nc(-c3cc(-c4cc(Cl)cnc4Cl)c(F)cc3F)n(-c3ccncn3)c2C1	CDK9 with cyclin T1	cell-free assay, inhibitor		1 µM		inhibition	0.9%
NC(=O)[C@@H](O)C[C@H]1CCc2sc3ncnc(O[C@H]4CC[C@H](N5CCOCC5)CC4)c3c21	CDK9 with cyclin T1	enzyme activity, inhibitor		10 µM		inhibition	39%
O=C(Nc1cc(-c2ccnc3[nH]ccc23)c(Cl)cn1)[C@H]1CCC[C@@H](NC(=O)C(F)(F)F)C1	CDK9	binding, KINOMEscan		100 nM		inhibition	99.8%
O=C(Cc1ccc(OCc2ccccc2)cc1)NC1(C(=O)O)CCN(C(=O)c2ccc(-c3cccc(Cl)c3)cc2)CC1	CDK9 with cyclin T1	enzyme activity, inhibitor		10 µM		activity vs control	108%
COc1c(Cl)cccc1Nc1c(-c2ccncc2C#C[C@@]2(C)CCCN2C(=O)/C=C/CN(C)C)[nH]c2c1C(=O)NCC2	CDK9	binding, competition with immobilised ligand		3 µM		remaining binding	100%
COCC12C(=O)NC3C4(C(OC)CC1O)C1CC5(O)C(OC)C(O)C(OC(C)=O)(C1C5OC(=O)c1ccccc1)C3(O)C(OC)C24 (centres unmarked)	Cyclin-dependent kinase 9, with cyclin T (CDK9, Homo sapiens, UniProt P50750)	kinase activity, inhibitor, ProQinase kinase profiling		25 µM	reference: control	remaining activity	109% and 105%
CCc1nnc(Nc2cnc([C@@H]3CCCN(C(=O)CCc4cccnc4)C3)cn2)s1	CDK9	enzyme activity, inhibitor, ADP detection		1 µM		activity vs control	104%
COc1cc(Nc2nccc(-c3cnn4nc(OC)ccc34)n2)cc(C(F)(F)F)c1	CDK9	binding, competition with immobilised ligand		1 µM		remaining binding	84%
CNS(=O)(=O)Nc1nccc(Cc2c(C)c3ccc(Oc4ncccc4F)cc3oc2=O)c1F	CDK9	binding, competition with immobilised ligand		10 µM		remaining binding	100%
CCn1cc(C(=O)O)c(=O)c2c(N)c(F)c(NC3CCCCC3)cc21	CDK9 with cyclin K	kinase activity		0.1 µM, together with: ATP at Km		inhibition	13.9%
CCN1CCN(Cc2ccc(C(=O)Nc3ccc(C)c(NCc4cnc5[nH]ccc5c4OC)c3)cc2C(F)(F)F)CC1	CDK9	binding, competition with immobilised ligand		1 µM		remaining binding	100%
CN1CCN(Cc2ccc(NC(=O)c3cccc(C#Cc4cnc(N)c5ncccc45)c3)cc2C(F)(F)F)CC1	CDK9	cell-free assay, competition with immobilised ligand		0.5 µM		remaining binding	100%
CN1CCN(Cc2ccc(-c3ccc(CO[C@H]4CCC[C@@H]4NC(=O)c4cc(-c5cnn(C)c5)cnc4N)cc3)cc2)CC1	CDK9 with cyclin T1	enzyme activity, inhibitor		0.1 µM		inhibition	5%
CN1C[C@@H](c2c[nH]c3cc(Br)ccc23)NC[C@@H]1c1c[nH]c2cc(Br)ccc12	CDK9 with cyclin K	enzyme activity, inhibitor		10 µM		remaining activity	106%
CS(=O)(=O)Nc1cccc(-c2csc3cnc(Nc4ccc(N5CCN(CCCCCOc6cccc7c6C(=O)N(C6CCC(=O)NC6=O)C7=O)CC5)cc4)nc23)c1 (centres unmarked)	CDK9	probe labelling, inhibitor, KiNativ chemoproteomics	MOLT-4	1 µM		inhibition	-6.91%

Excerpt of the above:
Structure (SMILES)	target	test	test system	conditions	how to read	endpoint	value
CCn1cc(C(=O)O)c(=O)c2c(N)c(F)c(NC3CCCCC3)cc21	CDK9 with cyclin K	kinase activity		0.1 µM, together with: ATP at Km		inhibition	13.9%
CCc1nnc(Nc2cnc([C@@H]3CCCN(C(=O)CCc4cccnc4)C3)cn2)s1	CDK9	enzyme activity, inhibitor, ADP detection		1 µM		activity vs control	104%
COc1ccc(NC(=O)Nc2ccc3c(c2)C(=O)N(C(C)CO)CC(C)C(CN(C)Cc2ccc4c(c2)OCO4)O3)cc1 (centres unmarked)	CDK9	binding, competition with immobilised ligand		10 µM		remaining binding	90%
CN1CC[C@@H](COc2cnc(C#N)cc2-c2ccn3nc(NC(=O)C4CC4)cc3c2)C1	CDK9 with cyclin T1	enzyme activity, inhibitor		1 µM		inhibition	20%
